Measurements pooled from the literature.
Lines come from different studies, so protocols differ. Several values in a cell are separate wells, animals, samples, runs or records. ± gives the spread as reported.
DYRK3: Dual specificity tyrosine-phosphorylation-regulated kinase 3 (DYRK3, Homo sapiens, UniProt O43781)
UniProt O43781, sequence (whole entry, looked up): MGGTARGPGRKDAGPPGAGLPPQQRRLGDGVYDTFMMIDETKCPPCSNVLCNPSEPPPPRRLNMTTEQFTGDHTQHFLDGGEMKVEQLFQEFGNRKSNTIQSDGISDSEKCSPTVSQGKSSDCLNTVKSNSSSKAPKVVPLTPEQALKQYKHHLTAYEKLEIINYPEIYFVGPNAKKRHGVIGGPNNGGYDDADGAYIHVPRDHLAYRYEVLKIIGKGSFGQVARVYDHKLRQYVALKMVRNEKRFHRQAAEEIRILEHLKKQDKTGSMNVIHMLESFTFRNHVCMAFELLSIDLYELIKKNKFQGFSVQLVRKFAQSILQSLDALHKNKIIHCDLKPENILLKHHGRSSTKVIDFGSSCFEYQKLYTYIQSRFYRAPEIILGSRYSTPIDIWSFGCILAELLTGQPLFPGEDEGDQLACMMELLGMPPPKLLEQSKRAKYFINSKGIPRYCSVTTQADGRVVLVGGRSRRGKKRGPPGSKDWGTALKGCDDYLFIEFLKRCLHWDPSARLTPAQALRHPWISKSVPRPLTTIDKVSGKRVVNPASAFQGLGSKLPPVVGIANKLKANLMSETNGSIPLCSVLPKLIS
UniProt P11678, sequence (whole entry, looked up): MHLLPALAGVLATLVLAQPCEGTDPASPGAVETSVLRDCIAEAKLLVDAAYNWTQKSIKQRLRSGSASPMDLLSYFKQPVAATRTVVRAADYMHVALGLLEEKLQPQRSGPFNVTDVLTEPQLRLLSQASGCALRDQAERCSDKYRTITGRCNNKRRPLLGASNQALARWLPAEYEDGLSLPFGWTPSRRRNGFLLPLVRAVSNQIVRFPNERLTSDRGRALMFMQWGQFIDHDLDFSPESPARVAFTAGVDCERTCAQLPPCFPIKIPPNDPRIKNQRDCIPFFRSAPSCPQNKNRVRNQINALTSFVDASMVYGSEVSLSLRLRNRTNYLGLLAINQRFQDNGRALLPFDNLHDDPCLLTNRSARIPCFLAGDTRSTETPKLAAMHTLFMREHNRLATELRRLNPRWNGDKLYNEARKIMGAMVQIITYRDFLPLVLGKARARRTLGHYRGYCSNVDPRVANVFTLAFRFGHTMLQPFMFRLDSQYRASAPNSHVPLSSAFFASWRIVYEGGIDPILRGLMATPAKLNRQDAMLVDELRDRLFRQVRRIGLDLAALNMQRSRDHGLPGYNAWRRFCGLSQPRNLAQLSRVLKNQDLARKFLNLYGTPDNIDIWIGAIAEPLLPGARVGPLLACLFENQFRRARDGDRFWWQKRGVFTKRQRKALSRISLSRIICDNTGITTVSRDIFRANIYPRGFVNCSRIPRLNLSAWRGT
UniProt P53667, sequence (whole entry, looked up): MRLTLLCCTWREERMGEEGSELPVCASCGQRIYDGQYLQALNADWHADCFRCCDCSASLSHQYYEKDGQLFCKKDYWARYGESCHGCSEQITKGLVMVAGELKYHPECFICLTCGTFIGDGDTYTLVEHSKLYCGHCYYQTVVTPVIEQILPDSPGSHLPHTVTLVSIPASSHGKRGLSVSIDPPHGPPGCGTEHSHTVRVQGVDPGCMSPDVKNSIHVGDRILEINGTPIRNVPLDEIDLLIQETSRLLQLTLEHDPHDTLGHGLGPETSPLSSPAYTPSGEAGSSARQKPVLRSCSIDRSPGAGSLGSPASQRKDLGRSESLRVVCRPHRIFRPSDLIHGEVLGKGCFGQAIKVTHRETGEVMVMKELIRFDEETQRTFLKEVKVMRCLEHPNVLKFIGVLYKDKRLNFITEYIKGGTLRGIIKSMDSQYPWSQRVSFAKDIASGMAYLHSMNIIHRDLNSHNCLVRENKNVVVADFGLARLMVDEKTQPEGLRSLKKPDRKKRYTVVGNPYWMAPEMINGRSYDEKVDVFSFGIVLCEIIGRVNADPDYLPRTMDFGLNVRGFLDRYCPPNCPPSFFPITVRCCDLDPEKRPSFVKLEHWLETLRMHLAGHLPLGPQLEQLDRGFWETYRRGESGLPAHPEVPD
UniProt Q02763, sequence (whole entry, looked up): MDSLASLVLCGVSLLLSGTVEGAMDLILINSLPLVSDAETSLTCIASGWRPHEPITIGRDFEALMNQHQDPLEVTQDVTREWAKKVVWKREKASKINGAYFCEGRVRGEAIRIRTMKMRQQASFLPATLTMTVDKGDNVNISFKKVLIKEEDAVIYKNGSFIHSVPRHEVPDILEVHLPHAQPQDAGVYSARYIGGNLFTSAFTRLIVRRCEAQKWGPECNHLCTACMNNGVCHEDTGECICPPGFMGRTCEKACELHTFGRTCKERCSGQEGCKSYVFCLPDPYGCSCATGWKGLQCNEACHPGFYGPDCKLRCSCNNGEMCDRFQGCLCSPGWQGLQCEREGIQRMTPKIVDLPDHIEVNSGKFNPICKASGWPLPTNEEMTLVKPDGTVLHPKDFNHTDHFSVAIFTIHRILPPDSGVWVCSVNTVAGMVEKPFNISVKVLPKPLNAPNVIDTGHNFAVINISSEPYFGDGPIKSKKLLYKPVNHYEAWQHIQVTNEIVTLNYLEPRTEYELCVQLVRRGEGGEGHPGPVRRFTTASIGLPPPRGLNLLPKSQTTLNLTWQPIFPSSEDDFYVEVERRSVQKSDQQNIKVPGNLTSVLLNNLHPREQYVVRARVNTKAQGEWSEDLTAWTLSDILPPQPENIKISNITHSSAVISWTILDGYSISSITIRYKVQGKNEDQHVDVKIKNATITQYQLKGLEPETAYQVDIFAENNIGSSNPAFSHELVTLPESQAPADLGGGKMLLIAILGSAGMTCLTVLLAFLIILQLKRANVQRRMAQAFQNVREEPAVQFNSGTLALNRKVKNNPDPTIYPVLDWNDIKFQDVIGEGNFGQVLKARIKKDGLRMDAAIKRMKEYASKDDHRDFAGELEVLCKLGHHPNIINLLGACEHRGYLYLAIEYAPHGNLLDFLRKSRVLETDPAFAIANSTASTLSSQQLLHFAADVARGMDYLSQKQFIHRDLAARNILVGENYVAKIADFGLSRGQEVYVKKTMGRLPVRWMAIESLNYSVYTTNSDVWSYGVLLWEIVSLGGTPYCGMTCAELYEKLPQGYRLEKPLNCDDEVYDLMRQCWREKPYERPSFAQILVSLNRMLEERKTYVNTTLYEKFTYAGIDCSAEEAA
UniProt Q13976, sequence (whole entry, looked up): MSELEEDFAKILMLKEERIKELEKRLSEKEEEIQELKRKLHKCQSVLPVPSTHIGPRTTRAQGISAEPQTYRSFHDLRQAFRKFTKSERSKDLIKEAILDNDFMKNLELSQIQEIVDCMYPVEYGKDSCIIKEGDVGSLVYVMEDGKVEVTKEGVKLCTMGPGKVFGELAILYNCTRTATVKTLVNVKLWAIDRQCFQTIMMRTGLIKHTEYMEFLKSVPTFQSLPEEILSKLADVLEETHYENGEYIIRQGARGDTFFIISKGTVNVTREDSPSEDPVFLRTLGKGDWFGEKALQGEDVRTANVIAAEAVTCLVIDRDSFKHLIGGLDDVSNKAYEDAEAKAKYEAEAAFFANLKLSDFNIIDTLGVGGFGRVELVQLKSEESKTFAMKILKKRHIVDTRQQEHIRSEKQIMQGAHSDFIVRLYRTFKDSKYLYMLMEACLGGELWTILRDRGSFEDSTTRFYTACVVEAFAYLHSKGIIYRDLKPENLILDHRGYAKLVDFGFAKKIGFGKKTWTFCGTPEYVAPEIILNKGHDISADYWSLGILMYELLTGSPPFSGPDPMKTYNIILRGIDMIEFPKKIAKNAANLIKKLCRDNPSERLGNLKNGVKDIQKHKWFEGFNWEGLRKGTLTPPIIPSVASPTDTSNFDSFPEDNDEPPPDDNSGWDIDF
UniProt P51451, sequence (whole entry, looked up): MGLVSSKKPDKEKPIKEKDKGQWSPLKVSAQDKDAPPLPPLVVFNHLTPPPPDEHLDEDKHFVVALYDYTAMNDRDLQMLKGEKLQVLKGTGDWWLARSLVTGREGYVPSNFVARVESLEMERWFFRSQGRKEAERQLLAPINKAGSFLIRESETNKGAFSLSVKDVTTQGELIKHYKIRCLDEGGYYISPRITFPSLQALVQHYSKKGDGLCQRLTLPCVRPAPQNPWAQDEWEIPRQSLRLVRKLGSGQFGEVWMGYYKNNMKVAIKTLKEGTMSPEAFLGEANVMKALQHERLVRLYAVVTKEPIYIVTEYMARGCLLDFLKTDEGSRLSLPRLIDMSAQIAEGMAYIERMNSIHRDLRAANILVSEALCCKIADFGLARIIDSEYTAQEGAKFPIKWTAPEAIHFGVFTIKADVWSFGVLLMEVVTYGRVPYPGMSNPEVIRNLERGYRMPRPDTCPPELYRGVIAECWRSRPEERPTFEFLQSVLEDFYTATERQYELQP
UniProt Q9Y2U5, sequence (whole entry, looked up): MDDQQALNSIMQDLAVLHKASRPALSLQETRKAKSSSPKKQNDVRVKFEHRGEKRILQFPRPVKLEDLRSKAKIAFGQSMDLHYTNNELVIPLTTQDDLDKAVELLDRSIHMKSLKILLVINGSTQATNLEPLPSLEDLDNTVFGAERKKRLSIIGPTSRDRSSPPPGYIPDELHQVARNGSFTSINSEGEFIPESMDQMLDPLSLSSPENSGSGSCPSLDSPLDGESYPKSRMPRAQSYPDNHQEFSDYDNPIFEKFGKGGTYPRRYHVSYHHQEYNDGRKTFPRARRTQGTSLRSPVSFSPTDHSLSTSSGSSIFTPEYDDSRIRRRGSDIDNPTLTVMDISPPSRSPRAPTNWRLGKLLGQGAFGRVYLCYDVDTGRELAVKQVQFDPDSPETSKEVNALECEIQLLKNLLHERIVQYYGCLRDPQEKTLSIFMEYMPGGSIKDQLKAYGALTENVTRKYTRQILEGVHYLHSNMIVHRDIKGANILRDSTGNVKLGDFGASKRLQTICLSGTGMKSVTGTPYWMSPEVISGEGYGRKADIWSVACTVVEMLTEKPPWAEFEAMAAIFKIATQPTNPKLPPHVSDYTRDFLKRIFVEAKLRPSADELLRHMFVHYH

O=C(O)c1ccc(Nc2ncc3c(n2)-c2ccc(Cl)cc2C(c2c(F)cccc2F)=NC3)cc1 gave a remaining activity of 92% (human EGFR(L861Q); kinase activity; 1 µM).
With O=C(NC1CCC1)c1ccc2nc(-c3cccc(NS(=O)(=O)NCCN4CCCCC4)c3)cn2c1 the remaining activity was 100% (LIM domain kinase 1 (LIMK1, Homo sapiens, UniProt P53667); enzyme activity; 10 µM).
The remaining activity of C=CC(=O)N1CCC[C@@H](n2nc(-c3ccc(Oc4ccccc4)cc3)c3c(N)ncnc32)C1 is reported as 108% (DYRK3; 0.1 µM).
The remaining activity of COc1ccc(F)cc1C(=O)NCc1ccc(-c2nn([C@@H](C)C(F)(F)F)c(N)c2C(N)=O)cc1 is reported as 72.8 ± 2.2% (Tyrosine-protein kinase Blk (BLK, Homo sapiens, UniProt P51451); 1000 nM, with: ATP at Km).
For Cc1cc(Nc2cc(N3CCN(C)CC3)nc(Sc3ccc(NC(=O)C4CC4)cc3)n2)[nH]n1, the remaining activity was 96% (cGMP-dependent protein kinase 1 (PRKG1, Homo sapiens, UniProt Q13976); kinase activity, KinaseProfiler; 0.03 µM, species human; reference: control).
COc1cc(F)ccc1-c1ncnc(Nc2cccc(C[S@](C)(=N)=O)c2)n1 gave a remaining activity of 81% (Angiopoietin-1 receptor (TEK, Homo sapiens, UniProt Q02763); kinase activity; 10 µM, with: ATP 10 µM).
NC/C(=C\F)COc1cccc(Cn2c(=S)[nH]c(=O)c3[nH]cnc32)c1 has a remaining activity of 170% and 162% (Eosinophil peroxidase (Homo sapiens, UniProt P11678); H2O2 electrode; 2.5 µM; reference: control).
The inhibition of Nc1ccc2cc3ccc(N)cc3nc2c1 is reported as -7.7% (THP-1; pyroptotic LDH release; 2 µM, 40 min, with: LPS then nigericin).
The remaining activity of COc1cc(-c2cncc3c2CN(C)Cc2cc(N4CCNCC4)ccc2-3)cc(OC)c1OC is reported as 103% (Mitogen-activated protein kinase kinase kinase 2 (MAP3K2, Homo sapiens, UniProt Q9Y2U5); kinase activity; 1 µM, human enzyme, with: ATP 10 µM; reference: DMSO control).
The IC50 of CN1CCN(c2ccc(Nc3ncc4cc(C#N)c(=O)n(C5CCCC5)c4n3)cc2)CC1 is reported as 6.8 µM (DYRK3).
CN(Cc1ccc(C(C)(C)C)cc1)Cc1cccc2ccccc12 gave an inhibition of 14.1% (THP-1; pyroptotic LDH release; 2 µM, 40 min, with: LPS then nigericin).

Some of these lines once more:
O=C(O)c1ccc(Nc2ncc3c(n2)-c2ccc(Cl)cc2C(c2c(F)cccc2F)=NC3)cc1 gave a remaining activity of 92% (human EGFR(L861Q); kinase activity; 1 µM).
